Results of several laboratories.
Medium: plasma

`OC1(C(F)(F)F)CCN(c2nc(Nc3ccnc(C(F)(F)F)c3)nc(-c3cccc(C(F)(F)F)n3)n2)C1` (stereo not drawn) has a Vd of 16.9 L/kg (Sprague-Dawley rat; intravenous, 1 mg/kg).
`Cc1cc2c(cc1O)C=C1C=CC(=O)C(C)(C)[C@H]1CC2` has a Vd of 3.4 L/kg (male Sprague-Dawley rat; intravenous, 2 mg/kg).
For `O=C(C1CCN(c2nnnn2-c2ccccc2)CC1)N1CCCc2ccccc21`, the Vd was 1.03 L/kg (male Sprague-Dawley rat; intravenous, 1 mg/kg).
With `CCC(CC)n1c(Cc2cccs2)nc2cc(C(=O)N[C@@H](CC(=O)O)c3ccccc3)ccc21` the Vd was 3.69 L/kg (male Sprague-Dawley rat; intravenous, 1 mg/kg).
`C/C(N)=N/C(=N\S(=O)(=O)c1ccc(C(F)(F)F)cc1)N1C[C@H](c2ccccc2)C(c2ccc(Cl)cc2)=N1` gave a Vd of 3.7 L/kg (male Sprague-Dawley rat; intravenous, 3 mg/kg).
The Vd of `O=c1c(-c2ccc(Cl)c(CN3CCOCC3)c2)coc2cc(O)ccc12` is reported as 12.7 L/kg (male Sprague-Dawley rat; intravenous, 2 mg/kg).
With `CN1CCC[C@@H]1C(=O)N[C@@H](Cc1ccc(-c2ccccc2)cc1)B(O)O` the Vd was 2.1 L/kg (male Sprague-Dawley rat; intravenous, 1 mg/kg).
The Vd of `Cc1[nH]nc2c1N=C(c1ccccc1Cl)c1cnc(N3CCOCC3)cc1N2` is reported as 4.34 L/kg (male Sprague-Dawley rat; intravenous, 1 mg/kg).
The Vd of `CC1(C)C(NC(=O)C(=NOC2(C(=O)O)CC2)c2csc(N)n2)C(=O)N1OS(=O)(=O)O` (stereo not drawn) is reported as 0.27 L/kg (rat; intravenous, 10 mg/kg, single dose).
The Vd of `COc1cc(OC)c2c(=O)cc(-c3cc(C)c(OCCCN4CCN(C)CC4)c(C)c3)oc2c1` is reported as 14.1 L/kg (male Sprague-Dawley rat; oral, 20 mg/kg, single dose).
With `CCC1(CC)CC(=O)N(C2CCOc3ccc(C(=O)NC4CC(C)(C)Oc5ccccc54)cc32)C(=N)N1` (stereo not drawn) the Vd was 9.2 L/kg (male Wistar rat; intravenous).
For `CNC(=O)C1CCCN(C(=O)C2CC3CCC2N3C(=O)[C@@H]2C[C@@H](O)CN2C(=O)NCc2cccc(Cl)c2F)C1` (mixture of isomers), the Vd was 0.86 L/kg (rat; intravenous, 2.5 mg/kg).

Some of these lines once more:
With `CCC1(CC)CC(=O)N(C2CCOc3ccc(C(=O)NC4CC(C)(C)Oc5ccccc54)cc32)C(=N)N1` (stereo not drawn) the Vd was 9.2 L/kg (male Wistar rat; intravenous).
The Vd of `Cc1[nH]nc2c1N=C(c1ccccc1Cl)c1cnc(N3CCOCC3)cc1N2` is reported as 4.34 L/kg (male Sprague-Dawley rat; intravenous, 1 mg/kg).
